Experimental data of several laboratories.
Lines come from different studies, so protocols differ. ± marks the error that the study gave.
Cell line: Caco-2 monolayers

SMILES	assay	system	setting	how to read	measurement	value
COc1ccc([C@@H]2CC(=O)c3c(O)cc(O)cc3O2)cc1O	bidirectional transport, HPLC-UV	–	100 µg/mL, 2 h	reference: BL→AP over AP→BL	efflux ratio	> 2
O=C(CS)NCCCCCC(=O)Nc1cccc2cccnc12	–	–	together with: verapamil 50 µM	reference: B-A over A-B	efflux ratio	1.28
CCCCC(CC)COC(=O)c1ccc(O)cc1 (stereo not shown)	–	cell lysate	5 µM, 1 h, apical to basolateral	reference: starting concentration	cellular accumulation	17%
COc1ccc2c(c1OC)C(=O)O[C@@H]2[C@H]1c2c(cc3c(c2OC)OCO3)CCN1C	bidirectional transport, HPLC-UV	–	100 µg/mL, 2 h	reference: BL→AP over AP→BL	efflux ratio	> 2
O=c1cc(-c2ccccc2)oc2cc(O)c(O)c(O)c12	–	–	100 µg/mL, 2 h	reference: Papp(BL-AP) over Papp(AP-BL)	efflux ratio	0.29
C[C@H]1O[C@@H](O[C@H]2[C@@H](O)C[C@H](O[C@H]3[C@@H](O)C[C@H](O[C@H]4CC[C@@]5(C)[C@H](CC[C@@H]6[C@@H]5C[C@@H](O)[C@]5(C)[C@@H](C7=CC(=O)OC7)CC[C@]65O)C4)O[C@@H]3C)O[C@@H]2C)C[C@H](O)[C@@H]1O	–	–	5 µM, 2 h, pH apical 6.5, basolateral 7.4	–	Papp (A to B)	0.68 ×10⁻⁶ cm/s
O=c1c(-c2ccc(O)cc2)coc2c([C@@H]3O[C@H](CO)[C@@H](O)[C@H](O)[C@H]3O)c(O)ccc12	basolateral to apical transport	–	100 µg/mL, 2 h	–	amount transported	4.4 ± 1.4%
N[C@@H](Cc1ccc(O)c(O)c1)C(=O)O	bidirectional transport, HPLC-UV	–	100 µg/mL, 2 h	reference: BL→AP over AP→BL	efflux ratio	> 2
COc1cc(C2Oc3cc([C@H]4Oc5cc(O)cc(O)c5C(=O)[C@@H]4O)ccc3OC2CO)ccc1O (stereo partly shown)	–	–	100 µg/mL, 2 h	reference: Papp(BL-AP) over Papp(AP-BL)	efflux ratio	0.9 ± 0.08
CC(=O)N[C@H]1[C@H]([C@H](O)[C@H](O)CO)OC(C(=O)O)=C[C@@H]1N=C(N)N	–	–	concentration not given, 180 min, apical to basolateral, together with: calcium-free HBSS	reference: HBSS with calcium	Papp fold increase	56.2 fold

Repeated from above:
SMILES	assay	system	setting	how to read	measurement	value
O=C(CS)NCCCCCC(=O)Nc1cccc2cccnc12	–	–	together with: verapamil 50 µM	reference: B-A over A-B	efflux ratio	1.28
